Results from different studies.
Parts stem from different laboratories: compare values within a part only.

Sample 1
Target: RING finger protein unkempt homolog, zinc fingers 1-6, GST-SBP tag (UNK, Homo sapiens, UniProt Q9C0B0, residues 30-357)
Chain of UniProt Q9C0B0 (30-357, looked up): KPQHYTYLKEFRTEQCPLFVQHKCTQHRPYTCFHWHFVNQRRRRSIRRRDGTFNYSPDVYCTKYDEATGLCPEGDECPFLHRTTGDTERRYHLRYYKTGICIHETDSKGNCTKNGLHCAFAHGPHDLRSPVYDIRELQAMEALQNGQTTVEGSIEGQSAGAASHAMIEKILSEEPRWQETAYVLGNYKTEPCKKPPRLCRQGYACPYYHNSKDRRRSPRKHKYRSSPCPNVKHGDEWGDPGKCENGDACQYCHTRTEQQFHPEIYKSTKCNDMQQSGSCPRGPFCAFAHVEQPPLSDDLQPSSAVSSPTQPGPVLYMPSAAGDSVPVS
Method: RNA Bind-n-Seq
Molecule type: RNA
Medium: in vitro
Concentration: not given
Notes: RNA with constant flanks, human and mouse sites, ends assumed
Reference: input RNA pool
Reading: higher = stronger binding
Measurement: bound/input enrichment
GGGAGUUCUACAGUCCGACGAUCACAAUCAUGCCUGCUUUUAUCUUUGAACAUAUUAUUAAGCGGAUGGCACCAAGCAUUAUGAAAAGCCUAAUGGACCACACCAUUCCUGAGGUUUAAAAUUCACGGCACCAUGGAAAUGUACAACAGAGGAUUGAGCAUCA: 0.161 ratio
GGGAGUUCUACAGUCCGACGAUCAGUCAGAAUGCCACUGAUUUUGAGAAAACGGGAUUUUCUGAAGAAAUUCUAGAUGACGUGAUUUUAUUGAUUAAAUCAGAUAGUGUCCAUCUGUACUGUAAUCCCGUCAACUACCGCUAUCAACAGAGGAUUGAGCAUCA: 0.209 ratio
GGGAGUUCUACAGUCCGACGAUCGAGGAGAAGCAACGGGAGCUGGCCCGGAAGGGUUCCCUGAAGAACGGCAGCAUGGGCAGCCCUGUCAACCAGCAACCCAAGAAGAACAACGUCAUGGCCCGGACGAGGCUGGUCGUCCCUCAACAGAGGAUUGAGCAUCA: 0.147 ratio
GGGAGUUCUACAGUCCGACGAUCGACUAGACGUUUUGGAUUUACGAUUCUAUUUUGUCGUUCGGUUGGUGGAAGAUGUGCUCGUAGCUCUAUUUUCCAUGACAGAUAGUGACGACACUACGUGCAAAAGGUAUAUAAAGAUGACAACAGAGGAUUGAGCAUCA: 0.405 ratio

Sample 2
Target: Histone acetyltransferase KAT6A, winged helix 2, GST fusion (KAT6A, Homo sapiens, UniProt Q92794, residues 85-181)
Method: protein binding microarray
Molecule type: double-stranded DNA, one strand shown
Medium: in vitro
Concentration: not given
Notes: 8-mer, flanks averaged, mean of 2 arrays, mostly near background
Reference: not given
Reading: higher = stronger binding
Measurement: E-score
Residues (chain): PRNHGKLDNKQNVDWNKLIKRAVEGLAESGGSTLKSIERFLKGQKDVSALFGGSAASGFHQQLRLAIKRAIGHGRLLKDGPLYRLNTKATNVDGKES
ATACGGGA: 0.0556
AGGCACAG: 0.0772
AACGCCCC: -0.0584

Sample 3
Target: Interferon regulatory factor 7, full length, phosphomimetic (IRF7, Homo sapiens, UniProt Q92985, residues 1-503, S471D/S472D/S475D/S476D/S477D/S483D/S484D/S487D)
Method: protein-binding microarray
Molecule type: double-stranded DNA, one strand shown
Medium: in vitro
Concentration: 2200 nM top
Notes: 60-bp whole probe
Added: salmon DNA 0.4 mg/ml
Reference: random background probes
Reading: higher = stronger binding
Measurement: fitted relative affinity
Residues (chain): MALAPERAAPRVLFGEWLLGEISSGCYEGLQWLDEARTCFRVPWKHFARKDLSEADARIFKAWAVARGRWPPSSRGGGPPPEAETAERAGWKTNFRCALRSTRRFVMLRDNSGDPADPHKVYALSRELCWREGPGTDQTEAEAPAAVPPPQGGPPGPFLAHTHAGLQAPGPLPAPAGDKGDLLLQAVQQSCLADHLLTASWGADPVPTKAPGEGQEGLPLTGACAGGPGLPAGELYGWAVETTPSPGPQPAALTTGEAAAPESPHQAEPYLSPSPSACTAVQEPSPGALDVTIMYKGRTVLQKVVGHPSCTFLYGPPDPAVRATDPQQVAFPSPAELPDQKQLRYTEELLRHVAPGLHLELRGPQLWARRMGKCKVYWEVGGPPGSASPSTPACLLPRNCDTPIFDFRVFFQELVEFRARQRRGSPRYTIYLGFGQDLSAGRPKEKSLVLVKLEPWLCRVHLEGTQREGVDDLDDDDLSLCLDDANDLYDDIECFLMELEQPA
GCCTAGCACTTAGGTTTCGACTTTCGGCTAGTGCTAGTCTTGATTCGCTTGACGCTGCTG: 7.79 z-score
GCCTAGCACGACGTACTGGACTTTCGGGACGTGCTAGTCTTGATTCGCTTGACGCTGCTG: 2.59 z-score
GCCTAGCACTTTTTTTTTGGAATGTCTTCGTGCTAGGTCTTGATTCGCTTGACGCTGCTG: 2.34 z-score
GCCTAGCACGACGAACTCGGGTATCGAGACGTGCTAGTCTTGATTCGCTTGACGCTGCTG: 0.0554 z-score

Mixed results
PhoQ, residues 284 288 289 292 302 303 SSTLSG
fold induction (PhoP, residues 12 14 15 18 19 NNFVT (Escherichia coli, UniProt P23836); Sort-seq, refers to: YFP reporter; E. coli; PhoQ-PhoP variant library, added: 10 µM Mg2+; reference: high Mg2+ state, higher = stronger signaling): 1.23

Excerpt of the above (sample 1):
GGGAGUUCUACAGUCCGACGAUCAGUCAGAAUGCCACUGAUUUUGAGAAAACGGGAUUUUCUGAAGAAAUUCUAGAUGACGUGAUUUUAUUGAUUAAAUCAGAUAGUGUCCAUCUGUACUGUAAUCCCGUCAACUACCGCUAUCAACAGAGGAUUGAGCAUCA: 0.209 ratio
